Published values of several laboratories.
Each line is one published result; not all experiments were run side by side. “And” joins repeats or separate records; there may be more than shown.
Target: Mitogen-activated protein kinase kinase kinase kinase 4 (MAP4K4, Homo sapiens, UniProt O95819)

The remaining binding of `COc1cc(Nc2nccc(-c3cnn4nc(OC)ccc34)n2)cc(C(F)(F)F)c1` is reported as 86% (binding, competition with immobilised ligand; 1 µM).
For `CNC(=O)C1CCN(c2cc(C)c(F)cc2NC(=O)c2ccc(-c3cc(O)ccc3C)c(C)c2)CC1`, the remaining binding was 87% (binding, competition with immobilised ligand; 1 µM).
`CN1CC[C@@H](COc2cnc(C#N)cc2-c2ccn3nc(NC(=O)C4CC4)cc3c2)C1` gave an inhibition of 20% (enzyme activity, inhibitor; 1 µM).
With `COCC12C(=O)NC3C4(C(OC)CC1O)C1CC5(O)C(OC)C(O)C(OC(C)=O)(C1C5OC(=O)c1ccccc1)C3(O)C(OC)C24` (stereo not drawn) the remaining activity was 89% and 100% (kinase activity, inhibitor, ProQinase kinase profiling; 25 µM; baseline: control).
`O=C(Cc1ccc(OCc2ccccc2)cc1)NC1(C(=O)O)CCN(C(=O)c2ccc(-c3cccc(Cl)c3)cc2)CC1`: “activity vs control” 102% (enzyme activity, inhibitor; 10 µM).
The inhibition of `NC(=O)C[C@H]1CCc2sc3ncnc(O[C@H]4CC[C@H](N5CCOCC5)CC4)c3c21` is reported as 26% (enzyme activity, inhibitor; 10 µM).
With `Nc1ncc2c(n1)-c1c([nH]c3ccc(C4=CCOCC4)cc13)CCC2` the remaining binding was 86% (binding, competition with immobilised ligand; 1 µM).
With `C=CC(=O)N1Cc2nc(-c3cc(-c4cc(Cl)cnc4Cl)c(F)cc3F)n(-c3ccncn3)c2C1` the inhibition was 26.4% (cell-free assay, inhibitor; 1 µM).
With `C=CC(=O)Nc1cccc(-c2cnc3[nH]cc(C(=O)NC(C)(C)C)c3n2)c1` the inhibition was 28% and 23% (kinase activity; 0.1 µM).
With `Nc1ncc(-c2cc(-c3cnn(CC(F)(F)F)c3)ncc2F)nc1C(=O)NC1CNCC(F)C1` (stereo not drawn) the remaining activity was 99.4% (enzyme activity; 1 µM; baseline: DMSO control).
`COc1cc(-n2cc3cc(F)cc(C(N)=O)c3n2)cc(Cl)c1C1CC(O)(CCO)Cc2ccccc21` (stereo not drawn) gave an inhibition of 0.78% (enzyme activity, inhibitor; 10 µM).
`Cc1cccc(O[C@H]2CCC[C@@H](C(C)CNCc3ccncc3)C2)c1` (relative stereo) has an inhibition of 3% (enzyme activity, inhibitor; 1 µM).
With `CN1CCN(Cc2ccc(-c3ccc(CO[C@H]4CCC[C@@H]4NC(=O)c4cc(-c5cnn(C)c5)cnc4N)cc3)cc2)CC1` the inhibition was 6% (enzyme activity, inhibitor; 0.1 µM).
`Cc1cnc2nc1Nc1cccc(c1)COC/C=C/COCc1cc(ccc1OCCN1CCOCC1)N2` has a remaining binding of 89% (binding; 0.1 µM).
The inhibition of `CCn1cc(C(=O)O)c(=O)c2c(N)c(F)c(NC3CCCCC3)cc21` is reported as -1.9% (kinase activity; 0.1 µM, together with: ATP at Km).

A few entries again:
With `C=CC(=O)N1Cc2nc(-c3cc(-c4cc(Cl)cnc4Cl)c(F)cc3F)n(-c3ccncn3)c2C1` the inhibition was 26.4% (cell-free assay, inhibitor; 1 µM).
